Results gathered from unrelated publications.
Lines come from different studies, so protocols differ. ± gives the spread as reported.

SMILES	cell line	test	conditions	how to read	viability
Cc1ccc(C2=CSC3=NC4=C(CNC/C4=C/c4ccc(Br)cc4)C(c4ccc(Br)cc4)N23)cc1 (centres unmarked)	SH-SY5Y	MTT	0.2 to 40 µM, 24 h	–	not toxic
Cc1cc(C)nc(Nc2ncc(C(=O)NCCc3c(C)[nH]c4ccccc34)cn2)c1	human cryopreserved hepatocytes	–	0.3, 3, 30 µM, 48 h	relative to: vehicle	> 96%
CN(C)c1ccc(C(Nc2nc3c(-c4ccc([N+](=O)[O-])cc4)nn(-c4ccccc4)c3s2)P(=O)(Oc2ccccc2)Oc2ccccc2)cc1 (centres unmarked)	Vero cells	SRB	0.01 µM, 10% fetal bovine serum	–	99.7%
O=C1CCP(=S)(c2ccccc2)CC1	SW480	trypan blue	IC50, 72 h	–	90%
N=C(N)NCCC[C@H](NC(=O)[C@H](CCCNC(=N)N)NC(=O)[C@H](CCCNC(=N)N)NC(=O)[C@H](CCC(N)=O)NC(=O)[C@H](CCCNC(=N)N)NC(=O)[C@H](CCCNC(=N)N)NC(=O)[C@H](CCCCN)NC(=O)[C@H](CCCCN)NC(=O)[C@H](CCCNC(=N)N)NC(=O)CNC(=O)[C@@H](N)Cc1ccc(O)cc1)C(=O)O	DF-1	–	25 µM, 24 h	relative to: untreated cells	106.1 ± 0.2%
Brc1ccc(/C=C2/CNCC3=C2N=C2SC=C(c4ccc5ccccc5c4)N2C3c2ccc(Br)cc2)cc1 (centres unmarked)	SH-SY5Y	MTT	0.2 to 40 µM, 24 h	–	not toxic
O=[N+]([O-])c1ccc(-c2nn(-c3ccccc3)c3sc(NC(c4ccccc4O)P(=O)(Oc4ccccc4)Oc4ccccc4)nc23)cc1 (centres unmarked)	Vero cells	SRB	100 µM, 10% fetal bovine serum	–	81.1%
N=C(N)NCCC[C@H](NC(=O)[C@H](CCCNC(=N)N)NC(=O)[C@H](CCCCN)NC(=O)[C@H](CCCNC(=N)N)NC(=O)[C@H](Cc1ccccc1)NC(=O)[C@H](Cc1ccc(O)cc1)NC(=O)[C@H](CCCNC(=N)N)NC(=O)[C@H](CCCNC(=N)N)NC(=O)[C@H](CCCNC(=N)N)NC(=O)[C@H](CCCNC(=N)N)NC(=O)[C@H](CCCNC(=N)N)NC(=O)[C@H](Cc1ccc(O)cc1)NC(=O)[C@H](CCCNC(=N)N)NC(=O)[C@@H](N)CCCNC(=N)N)C(=O)O	DF-1	–	5 µM, 12 h	relative to: untreated cells	101 ± 0.18%

A few entries again:
SMILES	cell line	test	conditions	how to read	viability
N=C(N)NCCC[C@H](NC(=O)[C@H](CCCNC(=N)N)NC(=O)[C@H](CCCNC(=N)N)NC(=O)[C@H](CCC(N)=O)NC(=O)[C@H](CCCNC(=N)N)NC(=O)[C@H](CCCNC(=N)N)NC(=O)[C@H](CCCCN)NC(=O)[C@H](CCCCN)NC(=O)[C@H](CCCNC(=N)N)NC(=O)CNC(=O)[C@@H](N)Cc1ccc(O)cc1)C(=O)O	DF-1	–	25 µM, 24 h	relative to: untreated cells	106.1 ± 0.2%
